Results pooled from the literature.
Protocols differ between the studies behind these lines. ± marks the error that the study gave.

| SMILES | test | system | conditions | logP |
| --- | --- | --- | --- | --- |
| COCCOCCOCCOc1ccc(/C=C/C2=[N+]3C(=C(c4cc(OC)cc(OC)c4)c4c(C)c(I)c(/C=C/c5ccc(OCCOCCOCCOC)cc5)n4[B-]3(F)F)C(C)=C2I)cc1 | – | octanol/HEPES buffer | pH 7.4, room temperature | 0.89 |
| O=C([O-])CN(CCN(CC(=O)[O-])Cc1cc(CCC(=O)NCCCCCC(=O)NCCCC[C@H](NC(=O)N[C@@H](CCC(=O)O)C(=O)O)C(=O)O)ccc1[O-])Cc1cc(CCC(=O)O)ccc1[O-].[68Ga+3] | – | n-octanol/PBS | pH 7.4 | -3.89 ± 0.16 |
| CC1(C)OB(c2ccc(COC(=O)N(Cc3cccc(CN4CCCCC4)c3)[c-]3cccc3)cc2)OC1(C)C.[Fe+2].c1cc[cH-]c1 | RP-TLC | MOPS/acetonitrile | pH 7.4 | > 6.26 |
| CC1COC2=C1C(=O)C(=O)c1c2ccc2c1C(OC(=O)CNC(=O)C(N)CO)CCC2(C)C (mixture of isomers) | – | n-octanol/water | 25 °C | 1.14 |
| CC[P+](CC)(CC)[Au-][S][C@@H]1O[C@H](COC(C)=O)[C@@H](OC(C)=O)[C@H](OC(C)=O)[C@H]1NC(C)=O | – | n-octanol/water | – | 0.26 |
| C1=CCCC=CCC1.C1=CCCC=CCC1.[Cl][Hg-]([Cl])[Cl].[Cl][Hg-]([Cl])[Cl].[Pt+][c]1ccccc1P(=Nc1ccccc1)(c1ccccc1)c1ccccc1.[Pt+][c]1ccccc1P(=Nc1ccccc1)(c1ccccc1)c1ccccc1 | – | n-octanol/phosphate buffer | pH 7.00 | -0.26 |
| Fc1ccc2nc3c4cccnc4c4ncccc4c3nc2c1.[Cl-].[Cl-].[Ru+2].c1ccncc1.c1ccncc1.c1ccncc1.c1ccncc1 | – | n-octanol/water | – | -1.07 ± 0.02 |
| COCCOCCOCCOc1ccc(/C=C/c2c(I)c(C)c3n2[B-](F)(F)[N+]2=C(C)C(I)=C(C)C2=C3c2cc(OC)cc(OC)c2)cc1 | – | octanol/HEPES buffer | pH 7.4, room temperature | 0.72 |
| CC1COC2=C1C(=O)C(=O)c1c2ccc2c1C(OC(=O)CNC(=O)C(N)CCC(=O)O)CCC2(C)C (mixture of isomers) | – | n-octanol/water | 25 °C | 2.88 |
